Published values from different studies.
Protocols differ between the studies behind these lines. Several values in a cell are separate wells, animals, samples, runs or records.
Cell line: HOP-92

SMILES	test	setting	how to read	quantity	result
CSc1nc(-c2ccc(Cl)cc2)c2c(NC(=O)c3ccccc3)nnc-2[nH]1	SRB	10 µM, NCI60 single-dose screen	baseline: untreated	cell growth	-95%
COc1ccc(OC)c(-c2nc3ccc(-c4nc5ccc(N6CCN(C)CC6)cc5[nH]4)cc3[nH]2)c1	SRB	10 µM, 48 h		growth percent	77.1%
CCCC(CCC)C(=O)OCc1cn(-c2c3ccccc3nc3ccccc23)nn1	NCI60 single-dose screen	10 µM		growth percentage	73%
CCCCN1CCN(c2ccc3[nH]c(-c4ccc5[nH]c(-c6cc(OC)c(OC)c(OC)c6)nc5c4)nc3c2)CC1	SRB	10 µM, 48 h		growth percent	50%
Cc1cc(-c2ccccc2)n(-c2nc(-c3ccc(Cl)cc3)c3c(NC(=O)c4ccccc4)nnc-3[nH]2)n1	SRB	10 µM, NCI60 single-dose screen	baseline: untreated	cell growth	93.7%
C#C[C@@]1(O)[C@@H](CO)O[C@@H](n2cc(Cl)c3c(N)ncnc32)[C@@H]1O	SRB	NCI-60 screen		TGI	3.74 µM and 3.33 µM
CCCCCCCCCCCCCCCCCCOc1ccc(CC(=O)OCC[N+](C)(C)C)cc1	SRB	10 µM		growth inhibition	< 0%
CCCCN1CCN(c2ccc3[nH]c(-c4ccc5[nH]c(-c6ccc(C(F)(F)F)cc6)nc5c4)nc3c2)CC1	SRB	10 µM, 48 h		growth percent	-13.5%
O=C(Nc1nnc2n3c(=S)[nH][nH]c3nc(-c3ccc(Cl)cc3)c1-2)c1ccccc1	SRB	10 µM, NCI60 single-dose screen	baseline: untreated	cell growth	86.3%
CCCCCCCCCCCCCCCCCCOc1ccc(CC(=O)OCC[N+]2(C)CCOCC2)cc1	SRB	10 µM		growth inhibition	< 0%
CCCCN1CCN(c2ccc3[nH]c(-c4ccc5[nH]c(-c6ccc(OCC)cc6)nc5c4)nc3c2)CC1	SRB	10 µM, 48 h		growth percent	95.9%
O=c1ccn(Cc2cn(-c3c4ccccc4nc4ccccc34)nn2)c(=O)[nH]1	NCI60 single-dose screen	10 µM		growth percentage	84.7%
Cn1cncc1C1=CN(c2ncnc3[nH]cnc23)CCS1		lung cancer		TGI	77.6 µM
CCCN1CCN(c2ccc3[nH]c(-c4ccc5[nH]c(-c6ccc(OCC)c(OCC)c6)nc5c4)nc3c2)CC1	SRB	10 µM, 48 h		growth percent	40.5%
Cc1n[nH]c2nc(-c3ccc(Cl)cc3)c3c(NC(=O)c4ccccc4)nnc-3n12	SRB	10 µM, NCI60 single-dose screen	baseline: untreated	cell growth	119%
[Br-].c1ccc2cc(Cn3c[n+](Cc4ccc5ccccc5c4)c4ccccc43)ccc2c1	NCI60 five-dose screen			TGI	1.57 µM
Cc1cc(=O)[nH]c(=O)n1Cc1cn(-c2cc3ccccc3oc2=O)nn1	NCI60 single-dose screen	10 µM		growth percentage	78.4%
CN1CCN(c2ccc3[nH]c(-c4ccc5[nH]c(-c6ccc(C(F)(F)F)cc6)nc5c4)nc3c2)CC1	SRB	10 µM, 48 h		growth percent	59.3%
Cc1cc(C)n(-c2nc(-c3ccc(Cl)cc3)c3c(NC(=O)c4ccccc4)nnc-3[nH]2)n1	SRB	10 µM, NCI60 single-dose screen	baseline: untreated	cell growth	75.6%
COCCOCCOCc1n(Cc2ccc3ccccc3n2)c2ccccc2[n+]1Cc1ccc2ccccc2c1.[Br-]	NCI60 five-dose screen			TGI	0.718 µM
Cc1cc(=O)[nH]n1-c1nc(-c2ccc(Cl)cc2)c2c(NC(=O)c3ccccc3)nnc-2[nH]1	SRB	10 µM, NCI60 single-dose screen	baseline: untreated	cell growth	106%
Cc1cc2c(cc1C)[n+](Cc1ccc3ccccc3c1)cn2Cc1ccc2ccccc2c1.[Br-]	NCI60 five-dose screen			TGI	2.53 µM

A few entries again:
SMILES	test	setting	how to read	quantity	result
CCCCN1CCN(c2ccc3[nH]c(-c4ccc5[nH]c(-c6ccc(OCC)cc6)nc5c4)nc3c2)CC1	SRB	10 µM, 48 h		growth percent	95.9%
Cc1cc2c(cc1C)[n+](Cc1ccc3ccccc3c1)cn2Cc1ccc2ccccc2c1.[Br-]	NCI60 five-dose screen			TGI	2.53 µM
